Assay results collected from several papers.
A part holds a random share of what one study measured. Changes are numbered by the printed parent chain. pIC50: −log10 of the molar value.
UniProt Q9UQM7, sequence (whole entry, looked up): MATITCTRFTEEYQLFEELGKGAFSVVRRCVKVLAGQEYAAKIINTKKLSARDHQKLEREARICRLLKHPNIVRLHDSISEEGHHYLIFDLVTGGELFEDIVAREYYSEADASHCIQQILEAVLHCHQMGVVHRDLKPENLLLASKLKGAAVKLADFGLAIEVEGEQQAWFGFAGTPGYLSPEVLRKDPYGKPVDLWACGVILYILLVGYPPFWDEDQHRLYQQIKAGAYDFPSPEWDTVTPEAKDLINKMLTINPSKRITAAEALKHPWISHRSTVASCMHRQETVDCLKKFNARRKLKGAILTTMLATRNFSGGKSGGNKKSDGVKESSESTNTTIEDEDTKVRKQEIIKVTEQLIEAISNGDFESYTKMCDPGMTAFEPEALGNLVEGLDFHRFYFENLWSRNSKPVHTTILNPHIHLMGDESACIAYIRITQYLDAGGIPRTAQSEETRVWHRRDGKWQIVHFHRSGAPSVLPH

Series 1
Target: CCNE2, cyclin fold, Cln2 fusion (human)
Method: yeast growth competition, sequencing
Sample: yeast
Notes: strong parent motif
Relative to: not given
Reading: higher = stronger binding
Parent: viral docking peptide; CKVKRKLFGSENI
| Change | normalised enrichment score |
| --- | --- |
| CKVKKKLFGSENI [R5K] | 0.156 |
| CKVKRKAFGSENI [L7A] | 0.489 |
| CKVKRKLLGSENI [F8L] | 0.0586 |
| CKVKRKLFGSANI [E11A] | 2.88 |
| CKVKAKLFGSENI [R5A] | 1.14 |

Further values, each from its own experiment
ADRB1: Beta-1 adrenergic receptor (ADRB1, Homo sapiens, UniProt P08588)
UniProt P08588, sequence (whole entry, looked up): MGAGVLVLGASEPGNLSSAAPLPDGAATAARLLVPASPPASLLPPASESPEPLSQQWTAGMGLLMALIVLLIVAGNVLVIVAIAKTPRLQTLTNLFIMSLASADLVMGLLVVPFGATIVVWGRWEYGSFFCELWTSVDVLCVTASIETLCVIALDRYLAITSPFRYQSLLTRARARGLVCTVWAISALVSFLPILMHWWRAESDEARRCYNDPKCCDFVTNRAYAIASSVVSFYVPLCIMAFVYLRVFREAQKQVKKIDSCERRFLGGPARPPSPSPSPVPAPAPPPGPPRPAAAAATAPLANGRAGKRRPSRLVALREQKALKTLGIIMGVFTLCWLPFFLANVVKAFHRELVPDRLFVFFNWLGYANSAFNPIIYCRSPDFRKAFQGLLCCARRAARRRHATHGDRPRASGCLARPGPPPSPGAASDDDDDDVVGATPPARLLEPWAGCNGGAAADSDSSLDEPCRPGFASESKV
| Structure (SMILES) | tested on | assay | test system | setting | scale | quantity | value |
| --- | --- | --- | --- | --- | --- | --- | --- |
| CC(=O)O[C@@]12CO[C@@H]1C[C@H](O)[C@@]1(C)C(=O)[C@H](O)C3=C(C)[C@@H](OC(=O)[C@H](O)[C@@H](NC(=O)c4ccccc4)c4ccccc4)C[C@@](O)([C@@H](OC(=O)c4ccccc4)[C@H]21)C3(C)C | CAMK2A (Homo sapiens, UniProt Q9UQM7) | enzyme activity, inhibitor | – | 10 µM | – | inhibition | 42% |
| C[C@@H](CO)NC(=O)[C@@H]1C=C2c3cccc4[nH]cc(c34)C[C@H]2N(C)C1 | Plasmodium berghei | inhibitor | Huh-7, GFP-expressing sporozoites, liver stage | 10 µM, 24 h | relative to: untreated control | infection rate | 98.4% |
| CC(Cc1ccccc1)NCCN1CCOCC1 (stereo not shown) | ADRB1 | antagonist | – | – | – | pIC50 | ≤ 4.00 |
| CN1C[C@H](C(=O)N[C@]2(C)O[C@@]3(O)[C@@H]4CCCN4C(=O)[C@H](Cc4ccccc4)N3C2=O)C=C2c3cccc4[nH]cc(c34)C[C@H]21 | Plasmodium berghei | inhibitor | Huh-7, GFP-expressing sporozoites, liver stage | 10 µM, 24 h | relative to: untreated control | infection rate | 52.3% |
| c1cc(N2CCNCC2)c2cc[nH]c2c1 | ADRB1 | antagonist | – | – | – | pIC50 | ≤ 4.00 |

Some of these lines once more (series 1):
| Change | normalised enrichment score |
| --- | --- |
| CKVKKKLFGSENI [R5K] | 0.156 |
| CKVKRKLFGSANI [E11A] | 2.88 |
